Published values from different studies.
Values joined by “and” are separate records of one study, mostly repeats; a detail may differ. ± gives the spread as reported. Converted amounts (≈) assume the structure as drawn.
Sequence of UniProt P51575 (whole entry, unmodified, looked up): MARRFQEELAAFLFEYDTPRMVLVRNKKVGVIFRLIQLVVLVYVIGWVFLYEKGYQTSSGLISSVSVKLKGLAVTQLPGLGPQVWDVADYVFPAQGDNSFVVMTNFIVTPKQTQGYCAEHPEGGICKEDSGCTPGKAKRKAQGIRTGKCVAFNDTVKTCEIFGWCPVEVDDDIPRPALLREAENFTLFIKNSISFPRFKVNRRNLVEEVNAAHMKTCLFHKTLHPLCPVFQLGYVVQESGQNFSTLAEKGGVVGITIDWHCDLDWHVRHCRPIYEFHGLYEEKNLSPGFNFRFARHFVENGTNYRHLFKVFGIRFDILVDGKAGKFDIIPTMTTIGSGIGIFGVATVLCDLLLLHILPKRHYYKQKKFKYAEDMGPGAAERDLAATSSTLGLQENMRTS
Sequence of UniProt Q9UKI8 (whole entry, looked up): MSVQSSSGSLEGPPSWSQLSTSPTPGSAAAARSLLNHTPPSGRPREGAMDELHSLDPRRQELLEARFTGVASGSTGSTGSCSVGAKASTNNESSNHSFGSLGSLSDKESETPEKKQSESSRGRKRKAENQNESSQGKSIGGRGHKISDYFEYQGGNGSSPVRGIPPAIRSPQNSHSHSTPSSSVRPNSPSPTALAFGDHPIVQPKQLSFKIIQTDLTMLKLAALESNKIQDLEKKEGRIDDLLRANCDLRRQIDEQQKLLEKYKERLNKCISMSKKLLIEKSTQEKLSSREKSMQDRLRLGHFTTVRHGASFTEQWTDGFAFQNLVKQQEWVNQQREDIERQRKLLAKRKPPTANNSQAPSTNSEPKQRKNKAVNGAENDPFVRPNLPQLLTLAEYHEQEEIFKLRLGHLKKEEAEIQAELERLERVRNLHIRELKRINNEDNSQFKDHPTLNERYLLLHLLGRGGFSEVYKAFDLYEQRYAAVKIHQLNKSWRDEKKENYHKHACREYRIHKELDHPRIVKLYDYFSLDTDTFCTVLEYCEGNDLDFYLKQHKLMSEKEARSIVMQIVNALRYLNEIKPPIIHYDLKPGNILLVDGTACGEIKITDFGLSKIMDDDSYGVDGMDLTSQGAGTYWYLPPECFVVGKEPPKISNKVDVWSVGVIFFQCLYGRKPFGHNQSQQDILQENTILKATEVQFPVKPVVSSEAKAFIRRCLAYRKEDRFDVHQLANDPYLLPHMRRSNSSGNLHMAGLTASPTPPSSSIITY
Sequence of UniProt Q9Y6G9 (whole entry, looked up): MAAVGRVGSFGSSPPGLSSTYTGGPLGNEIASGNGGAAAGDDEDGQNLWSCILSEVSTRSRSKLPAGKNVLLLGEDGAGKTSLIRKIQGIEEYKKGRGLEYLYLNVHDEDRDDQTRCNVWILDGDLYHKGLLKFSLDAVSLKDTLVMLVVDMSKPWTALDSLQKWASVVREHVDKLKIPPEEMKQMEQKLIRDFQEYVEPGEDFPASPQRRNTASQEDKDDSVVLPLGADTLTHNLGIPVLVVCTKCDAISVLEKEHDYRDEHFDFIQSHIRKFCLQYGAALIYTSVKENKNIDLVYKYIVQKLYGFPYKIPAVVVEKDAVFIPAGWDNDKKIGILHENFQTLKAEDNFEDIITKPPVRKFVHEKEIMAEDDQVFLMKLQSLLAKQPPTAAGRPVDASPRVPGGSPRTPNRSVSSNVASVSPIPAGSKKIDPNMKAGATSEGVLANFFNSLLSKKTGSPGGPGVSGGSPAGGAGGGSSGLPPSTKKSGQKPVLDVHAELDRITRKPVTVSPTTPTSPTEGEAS
Sequence of UniProt O70423 (whole entry, looked up): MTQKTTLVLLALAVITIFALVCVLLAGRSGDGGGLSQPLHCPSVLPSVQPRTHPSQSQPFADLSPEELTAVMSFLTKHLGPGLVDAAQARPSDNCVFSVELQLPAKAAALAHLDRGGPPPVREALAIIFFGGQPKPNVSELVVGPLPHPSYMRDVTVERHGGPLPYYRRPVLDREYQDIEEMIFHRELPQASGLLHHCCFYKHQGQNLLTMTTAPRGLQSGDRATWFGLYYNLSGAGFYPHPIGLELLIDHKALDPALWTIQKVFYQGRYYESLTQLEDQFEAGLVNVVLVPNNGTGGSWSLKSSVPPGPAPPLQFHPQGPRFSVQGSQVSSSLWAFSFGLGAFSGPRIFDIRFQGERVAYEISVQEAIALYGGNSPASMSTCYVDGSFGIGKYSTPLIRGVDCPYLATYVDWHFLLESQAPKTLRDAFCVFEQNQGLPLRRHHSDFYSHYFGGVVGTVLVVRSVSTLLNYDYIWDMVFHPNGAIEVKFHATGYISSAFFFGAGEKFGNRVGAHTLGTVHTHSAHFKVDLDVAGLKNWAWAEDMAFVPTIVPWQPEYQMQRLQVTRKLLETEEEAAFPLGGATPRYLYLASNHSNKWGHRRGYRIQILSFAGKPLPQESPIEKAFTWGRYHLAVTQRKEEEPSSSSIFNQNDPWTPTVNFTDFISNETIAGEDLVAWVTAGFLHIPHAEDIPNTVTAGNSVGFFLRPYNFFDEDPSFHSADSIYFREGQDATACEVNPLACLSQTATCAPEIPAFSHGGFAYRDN

CN1CCN(CCNCc2cc3ccccc3nc2SCc2ccccc2)CC1 — inhibition (electron transport chain; proton pumping, ACMA quenching; Pseudomonas aeruginosa inverted membrane vesicles; 32 µg/mL, with: NADH): 86%
COc1cc2c(cc1OC)C(=O)C(CC1CCN(Cc3ccccc3)CC1)C2 (stereo not shown) — lowest IC30 across channels (human seizure ion channel panel; ion current, automated patch clamp): 16.3 µM
CCN1CCC(CCNCc2cc3cc(OC)c(OC)c(OC)c3nc2SCc2ccccc2)CC1 — inhibition (electron transport chain; proton pumping, ACMA quenching; Pseudomonas aeruginosa inverted membrane vesicles; 2 µg/mL, with: NADH): 6%
NCc1cc2c(cc1F)C(=O)N(C1CCC(=O)NC1=O)C2 (stereo not shown) — concentration (Amine oxidase [copper-containing] 3 (Mus musculus, UniProt O70423); substrate, LC-MS/MS; recombinant mouse enzyme; 10 µM, 0 h, pH 7.4): 12.7 µM
CC(C)c1cn(C(C)C)c(CN2CCN(Cc3nc(C(C)C)cn3C(C)C)CCN(Cc3nc(C(C)C)cn3C(C)C)CC2)n1 — pZn (Zn2+; potentiometric titration; pH 7.4, ligand and metal 2 mM): > 12.4
C=CC(=O)N1CCC(C(=O)N(C)CC(=O)N2CCN(c3nc(-c4cnc(N)nc4C(F)F)nc(N4CCOCC4)n3)CC2)CC1 — IC50 (PKB/Akt; Ser473 phosphorylation, in-cell western; SK-OV-3): 0.0851 µM
CC[S+]([O-])c1nc(-c2ccccc2)cc(C(F)(F)F)n1 (stereo not shown) — cells with nuclear reporter (importin alpha/beta-1; cMyc nuclear import, high content imaging; HeLa Kyoto reporter; 50 µM, 2 h): 0.63% and 0.82% and 3.72% and 2.78%
CCCCCCCC(=O)OC[C@H](COP(=O)(O)O[C@@H]1[C@H](O)[C@H](O)[C@@H](OP(=O)(O)O)[C@H](OP(=O)(O)O)[C@H]1O)OC(=O)CCCCCCC — efficacy factor E1 (Kv7.2/Kv7.3(EEE) mutant channel; channel open probability, activator, fitted PIP2 binding model; model 5, efficacy fixed to wild type; baseline: channel without bound PIP2): 3.99
NCCNC(=O)c1ccc(Cl)cn1 — lowest IC30 across channels (human seizure ion channel panel; ion current, automated patch clamp): > 30 µM
c1coc(-c2n[nH]cc2-c2ccnc3ccccc23)c1 — log2 fold change (CDC15 (Candida albicans); kinase binding, MIB/MS competition; Candida albicans lysate; 10 µM; baseline: DMSO): -0.09
CN1CCN(CCNCc2cc3cc(-c4ccccc4)ccc3nc2SCc2ccccc2)CC1 — inhibition (electron transport chain; proton pumping, ACMA quenching; Pseudomonas aeruginosa inverted membrane vesicles; 32 µg/mL, with: NADH): 85%
CC(C)(c1cc(Br)c(O)c(Br)c1)c1cc(Br)c(O)c(Br)c1 — cross-reactivity (camel nanobody T2; binding, competitive ELISA; concentration not given): < 0.1%
CN[C@H](CC(C)C)C(=O)N[C@H]1C(=O)N[C@@H](CC(N)=O)C(=O)N[C@H]2C(=O)N[C@H]3C(=O)N[C@H](C(=O)N[C@H](C(=O)O)c4cc(O)cc(O)c4-c4cc3ccc4O)[C@H](O)c3ccc(c(Cl)c3)Oc3cc2cc(c3O[C@@H]2O[C@H](CO)[C@@H](O)[C@H](O)[C@H]2O[C@H]2C[C@](C)(N)[C@H](O)[C@H](C)O2)Oc2ccc(cc2Cl)[C@H]1O — MIC50 (Streptococcus pyogenes; 10 isolates; serum 50%): 0.5 µg/mL (≈ 0.345 µM)
CC(=O)ON=C1C=CC(=C(C#N)c2ccccc2)C=C1 — remaining activity (Leishmania major CK1; enzyme activity, inhibitor, ADP-Glo; 2 µM, about MIC/10, with: ATP 10 µM): 111%
O=C1c2cccc3c2[C@H](CCC3)CN1[C@@H]1CN2CCC1CC2 — Km (H+/organic cation antiporter; cell uptake; hCMEC/D3): 41.4 µM
COc1nc(NCc2cn(-c3ccc(C(=O)Nc4ccccc4)cc3)nn2)nc(OC)n1 — limit of quantification (calf thymus DNA; DNA damage, Tb3+ fluorescence; 24 h): 8.88 nM
NC(=O)c1cnc2[nH]ccc2c1N[C@@H]1[C@@H]2CC3C[C@H]1C[C@@](O)(C3)C2 — total naive T-cell change (flow cytometry; Japanese healthy men, blood; oral, 100 mg twice daily, 72 h after day 7 dose; baseline: baseline): -7.5%
COc1ccc2c(c1)N(C[C@H](C)CN(C)C)c1ccccc1S2 — Km (H+/organic cation antiporter; cell uptake; hCMEC/D3): 9.7 µM
COc1cccc2c1C(=O)c1c(O)c3c(c(O)c1C2=O)C[C@@](O)(C(=O)CO)C[C@@H]3O[C@H]1C[C@H](N)[C@H](O)[C@H](C)O1 — limit of detection (calf thymus DNA; DNA damage, Tb3+ fluorescence; 24 h): 0.76 nM
O=C(COP(=O)(O)O)[C@@H](O)[C@H](O)[C@H](O)COP(=O)(O)O — thermal stability ratio (DYNC1LI1 (Homo sapiens, UniProt Q9Y6G9); thermal proteome profiling; HepG2 cell lysate; concentration not given, 57 over 37 °C, mean; baseline: compound over control): 0.657
CC(C)C[C@H](NC(=O)C[C@H](O)[C@H](CC(C)C)NC(=O)[C@H](Cc1c[nH]cn1)NC(=O)CNC(=O)[C@@H](NC(=O)[C@H](C)NC(=O)[C@H](Cc1c[nH]c2ccccc12)NC(=O)[C@H](CCC(N)=O)NC(=O)[C@@H](Cc1ccccc1)NC(=O)COCCOCCNC(=O)CN1CCN(CC(=O)O)CCN(CC(=O)O)CCN(CC(=O)O)CC1)C(C)C)C(N)=O [lutetium-177 labelled] — tissue uptake (BALB/c nu/nu mice, female, lumbar lymph node metastases; intravenous, 50 pmol, 24 h): 5 ± 2 %ID/g
Oc1ccccc1-c1n[nH]cc1-c1ccnc2ccccc12 — log2 fold change (DUN1 (Candida albicans); kinase binding, MIB/MS competition; Candida albicans lysate; 10 µM; baseline: DMSO): 0.1
CC(C)C(=O)Oc1ccc(CO)cc1[C@H](CCN(C(C)C)C(C)C)c1ccccc1 — Vmax (H+/organic cation antiporter; cell uptake; hCMEC/D3): 3980 pmol/min/mg protein
CC[C@@H]1[C@H](F)C(=O)N[C@@H]1COc1nccc2cc(C(N)=O)c(OC)cc12 — inhibition (TLK1 (Homo sapiens, UniProt Q9UKI8); ATP-site probe binding, ActivX profiling; THP-1 cell lysate; 0.04 mM, Lys1 site): 21.8%
CC12CC3CC(C)(C1)CC(N)(C3)C2 — lowest IC30 across channels (human seizure ion channel panel; ion current, automated patch clamp): 1.78 µM
CCS(=O)(=O)c1nc(C2CC2)cc(C(F)(F)F)n1 — cells with nuclear reporter (importin alpha/beta-1; cMyc nuclear import, high content imaging; HeLa Kyoto reporter; 0.05 µM, 2 h): 91.7% and 69.1% and 96.1% and 95%
c1ccc(CSc2nc3ccc(-c4ccccc4)cc3cc2CNCc2ccc(CN3CCCC3)cc2)cc1 — inhibition (electron transport chain; proton pumping, ACMA quenching; Pseudomonas aeruginosa inverted membrane vesicles; 32 µg/mL, with: NADH): 97%
Cn1cc(-c2ccc(-c3cncc(Cl)c3N3CCC4(CCNC4=O)CC3)cc2)cn1 — log2 fold change (COLO 205; gene expression, microarray, refers to: OXTR mRNA; concentration not given, 6 h; baseline: untreated cells): -1.43
CCN(CC)CCNC(=O)c1c(C)[nH]c(/C=C2\C(=O)Nc3ccc(F)cc32)c1C — inhibition (PKCβII (human); kinase activity, inhibitor; 10 µM): 5%
O=C(O)CC[C@H](NC(=O)N[C@@H](CCCCNC(=O)[C@H](Cc1ccc2ccccc2c1)NC(=O)CCCCCNC(=O)CN1CCN(CC(=O)O)CCN(CC(=O)O)CCN(CC(=O)O)CC1)C(=O)O)C(=O)O [gallium-68 labelled] — tissue uptake (gamma counting; mouse, PC-3 xenograft, bone; intravenous, 3.7 MBq, 2 h): 3.33 ± 0.39 %ID/g
CC(=O)O[C@H]1C(=O)[C@@]2(C)[C@H]([C@H](OC(=O)c3ccccc3)[C@]3(O)C[C@H](OC(=O)[C@H](O)[C@@H](NC(=O)c4ccccc4)c4ccccc4)C(C)=C1C3(C)C)[C@]1(OC(C)=O)CO[C@@H]1C[C@@H]2O — lowest IC30 across channels (human seizure ion channel panel; ion current, automated patch clamp): > 30 µM
c1ccc(CSc2nc3ccc(-c4ccccc4)cc3cc2CNCCC2CCN(C3CCCC3)CC2)cc1 — inhibition (electron transport chain; proton pumping, ACMA quenching; Pseudomonas aeruginosa inverted membrane vesicles; 32 µg/mL, with: NADH): 82%
O=C(O)Cc1ccccc1Nc1c(Cl)cccc1Cl — lowest IC30 across channels (human seizure ion channel panel; ion current, automated patch clamp): > 30 µM
CCOc1ccccc1OCCN[C@H](C)Cc1ccc(OC)c(S(N)(=O)=O)c1 — Km (H+/organic cation antiporter; cell uptake; hCMEC/D3): 78.7 µM
Fc1ccc([C@@H]2CCNC[C@H]2COc2ccc3c(c2)OCO3)cc1 — lowest IC30 across channels (human seizure ion channel panel; ion current, automated patch clamp): 1.27 µM
Brc1ccc2nc(SCc3ccccc3)c(CNCc3ccc(CN4CCCC4)cc3)cc2c1 — inhibition (electron transport chain; proton pumping, ACMA quenching; Pseudomonas aeruginosa inverted membrane vesicles; 32 µg/mL, with: NADH): 80%
C[N+](C)(C)Cc1cccc(N=Nc2cccc(C[N+](C)(C)C)c2)c1 — slow inward current (frog; atrial fibres; micromolar): increased
COCCc1ccc(OCC(O)CNC(C)C)cc1 (stereo not shown) — Vmax (H+/organic cation antiporter; cell uptake; hCMEC/D3): 1280 pmol/min/mg protein
C=C1CC(C(=O)Nc2cc(C(=O)NC)cc(-c3sccc3CCCCCCCC)c2OC)C1 — luciferase activity (TREM2 (human); reporter gene, agonist, NFAT luciferase reporter; Jurkat-NFAT cells overexpressing TREM2; 25 µM, 4 h; baseline: control): ~215%
C[C@@H]1CC[C@H]2[C@@H](/C1=C/C[C@H]1[C@]3(C)CCC(=O)C(C)(C)O[C@H]3CC[C@]1(C)O)C(C)(C)CC[C@]2(C)O — paclitaxel remaining (P-glycoprotein human; inhibitor, efflux; KB-C2; 10 µM, 60 min, with: [3H]-paclitaxel): 68.7%
C=CCN1C[C@H](C(=O)N(CCCN(C)C)C(=O)NCC)C[C@@H]2c3cccc4[nH]cc(c34)C[C@H]21 — Vmax (H+/organic cation antiporter; cell uptake; hCMEC/D3): 6030 pmol/min/mg protein
COc1nc(NCc2cn(-c3ccc(C(=O)Nc4ccc(C(F)(F)F)cc4)cc3)nn2)nc(OC)n1 — limit of quantification (calf thymus DNA; DNA damage, Tb3+ fluorescence; 24 h): 6.24 nM
CC(C)C[C@H](NC(=O)C[C@H](O)[C@H](CC(C)C)NC(=O)[C@H](Cc1c[nH]cn1)NC(=O)CNC(=O)[C@@H](NC(=O)[C@H](C)NC(=O)[C@H](Cc1c[nH]c2ccccc12)NC(=O)[C@H](CCC(N)=O)NC(=O)[C@@H](Cc1ccccc1)NC(=O)COCCOCCNC(=O)CCC(C(=O)O)N1CCN(CC(=O)O)CCN(CC(=O)O)CCN(CC(=O)O)CC1)C(C)C)C(N)=O (stereo partly shown) [lutetium-177 labelled] — tissue uptake (female BALB/c nu/nu mice, liver; intravenous, 100 pmol, 48 h, with: PA 300 µg): 0.03 ± 0.01 %ID/g
O=C(NN=Cc1ccc(C[n+]2ccccc2)cc1)c1ccc2ccc3ccc(C(=O)NN=Cc4ccc(C[n+]5ccccc5)cc4)nc3c2n1.[Br-].[Br-] — ΔTm (telomeric G4 DNA hybrid-2; FRET melting; 1 µM, DNA 0.2 µM): 36 °C
O=S(=O)(NCCNC/C=C/c1ccc(Br)cc1)c1cccc2cnccc12 — embryos arrested at zygote stage (PKA; inhibitor; mouse zygotes; 20 µM, Post hCG injection, 96 h, early embryonic development): 0%
COc1cc2cc(CNCCC3CCN(C4CCCC4)CC3)c(SCc3ccccc3)nc2c(OC)c1OC — inhibition (electron transport chain; proton pumping, ACMA quenching; Pseudomonas aeruginosa inverted membrane vesicles; 2 µg/mL, with: NADH): 19%
CC(C)n1ccnc1CN1CCN(Cc2nccn2C(C)C)CCN(Cc2nccn2C(C)C)CC1 — stability constant difference (Zn2+; potentiometric titration; baseline: Zn2+ over Mn2+): ≥ 9 orders of magnitude
CC(C)[C@H](NC(=O)[C@H](Cc1ccc(O)cc1)NC(=O)[C@H](Cc1ccc(O)cc1)NC(=O)[C@@H]1CCCN1C(=O)[C@H](CCC(=O)O)NC(=O)[C@H](CCC(=O)O)NC(=O)[C@H](Cc1c[nH]c2ccccc12)NC(=O)[C@@H]1CCCN1C(=O)[C@@H](NC(=O)[C@H](CCC(N)=O)NC(=O)c1ccc2c(c1)C(=O)OC21c2ccc(O)cc2Oc2cc(O)ccc21)C(C)C)C(=O)N[C@H](C(=O)N[C@@H](CCCCN)C(=O)N[C@@H](CCCCN)C(=O)N[C@@H](CO)C(=O)N[C@@H](CO)C(=O)NCC(=O)NCC(N)=O)C(C)C — plasma concentration (human, plasma; intravenous infusion, 400 mg, 0.5 h): 29500 ng/mL
CC(CN(C)C)CN1c2ccccc2CCc2ccccc21 (stereo not shown) — Vmax (H+/organic cation antiporter; cell uptake; hCMEC/D3): 2120 pmol/min/mg protein
OC(CCN1CCCCC1)(c1ccccc1)C1CC2C=CC1C2 (stereo not shown) — power, alpha, EEG O1-Pz (resting-state EEG; healthy elderly humans; oral, 2 mg, eyes closed, LS mean): 21.3 µV²
CN(C)CCOC(C)(c1ccccc1)c1ccccn1 (stereo not shown) — Vmax (H+/organic cation antiporter; cell uptake; hCMEC/D3): 604 pmol/min/mg protein
Nc1ncnc2c1ncn2[C@@H]1O[C@H](COP(=O)(O)CP(=O)(O)OP(=O)(O)O)[C@@H](O)[C@H]1O — specific binding (P2X purinoceptor 1 (P2RX1, Homo sapiens, UniProt P51575, K215A); saturation binding; HEK293; 79 nM): 4040 CCPM and 4770 CCPM
